Experimental data of several laboratories.
Compare with care: the assays were run in different laboratories. ± marks the error that the study gave.
PHO4: PHO4 1-312 (Saccharomyces cerevisiae, UniProt P07270)
Sequence of UniProt P07270 (whole entry, looked up): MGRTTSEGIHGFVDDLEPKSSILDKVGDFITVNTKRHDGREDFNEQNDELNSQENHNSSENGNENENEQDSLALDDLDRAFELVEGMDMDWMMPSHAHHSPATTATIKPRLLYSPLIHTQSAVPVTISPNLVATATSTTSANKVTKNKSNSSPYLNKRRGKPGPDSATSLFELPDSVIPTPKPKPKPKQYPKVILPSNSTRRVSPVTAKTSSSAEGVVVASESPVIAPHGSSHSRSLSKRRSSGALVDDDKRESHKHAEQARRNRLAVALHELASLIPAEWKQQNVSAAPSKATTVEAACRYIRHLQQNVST
MECP2: MECP2 1-486 (Homo sapiens, UniProt P51608)
U2AF2: U2AF2 148-342 (Homo sapiens, UniProt P26368)
Sequence of UniProt P26368 (whole entry, looked up): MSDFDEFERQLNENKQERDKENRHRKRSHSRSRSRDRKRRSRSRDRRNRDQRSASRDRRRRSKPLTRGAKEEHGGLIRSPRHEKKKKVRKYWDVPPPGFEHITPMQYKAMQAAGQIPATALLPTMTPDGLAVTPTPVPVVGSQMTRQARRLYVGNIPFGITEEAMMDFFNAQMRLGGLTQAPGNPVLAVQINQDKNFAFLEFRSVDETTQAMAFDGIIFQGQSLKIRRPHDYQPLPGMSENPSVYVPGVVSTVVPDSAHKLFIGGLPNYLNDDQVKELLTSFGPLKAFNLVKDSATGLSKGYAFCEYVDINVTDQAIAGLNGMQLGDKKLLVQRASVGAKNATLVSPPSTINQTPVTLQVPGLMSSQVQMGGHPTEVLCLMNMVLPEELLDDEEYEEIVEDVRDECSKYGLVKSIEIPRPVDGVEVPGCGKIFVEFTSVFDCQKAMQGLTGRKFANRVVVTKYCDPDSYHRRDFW
nac full length assumed: nac full length assumed (Escherichia coli, UniProt Q47005)
Sequence of UniProt Q47005 (whole entry, looked up): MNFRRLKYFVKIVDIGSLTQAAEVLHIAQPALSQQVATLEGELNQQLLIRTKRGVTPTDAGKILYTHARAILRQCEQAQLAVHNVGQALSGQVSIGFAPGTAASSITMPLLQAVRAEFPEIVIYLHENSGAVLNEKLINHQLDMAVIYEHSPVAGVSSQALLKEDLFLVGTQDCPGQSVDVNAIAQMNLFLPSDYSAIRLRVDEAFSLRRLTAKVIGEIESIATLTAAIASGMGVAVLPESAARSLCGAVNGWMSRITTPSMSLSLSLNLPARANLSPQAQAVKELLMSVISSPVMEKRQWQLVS
ulaR full length assumed: ulaR full length assumed (Escherichia coli, UniProt P0A9W0)
Sequence of UniProt P0A9W0 (whole entry, looked up): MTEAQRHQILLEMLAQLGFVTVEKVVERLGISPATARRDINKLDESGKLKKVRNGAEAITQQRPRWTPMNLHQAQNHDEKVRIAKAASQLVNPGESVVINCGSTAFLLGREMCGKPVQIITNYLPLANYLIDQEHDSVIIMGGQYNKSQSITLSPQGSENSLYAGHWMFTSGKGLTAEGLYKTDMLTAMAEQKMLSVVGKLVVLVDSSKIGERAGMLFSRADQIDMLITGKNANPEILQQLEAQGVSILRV
CBF1 full length assumed: CBF1 full length assumed (Saccharomyces cerevisiae, UniProt P17106)
Sequence of UniProt P17106 (whole entry, looked up): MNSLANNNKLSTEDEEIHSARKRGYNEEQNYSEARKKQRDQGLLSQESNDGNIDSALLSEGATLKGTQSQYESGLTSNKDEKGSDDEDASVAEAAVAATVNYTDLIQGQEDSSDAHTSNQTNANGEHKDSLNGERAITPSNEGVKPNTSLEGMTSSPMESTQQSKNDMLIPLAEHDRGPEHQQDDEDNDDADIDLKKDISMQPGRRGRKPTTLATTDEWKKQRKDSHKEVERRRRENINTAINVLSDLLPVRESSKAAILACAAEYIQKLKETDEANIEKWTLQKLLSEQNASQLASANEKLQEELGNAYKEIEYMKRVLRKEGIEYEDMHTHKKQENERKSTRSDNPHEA
PARP1 216-1014 del1-215: PARP1 216-1014 del1-215 (Homo sapiens, UniProt P09874)
Sequence of UniProt P09874 (whole entry, unmodified, looked up): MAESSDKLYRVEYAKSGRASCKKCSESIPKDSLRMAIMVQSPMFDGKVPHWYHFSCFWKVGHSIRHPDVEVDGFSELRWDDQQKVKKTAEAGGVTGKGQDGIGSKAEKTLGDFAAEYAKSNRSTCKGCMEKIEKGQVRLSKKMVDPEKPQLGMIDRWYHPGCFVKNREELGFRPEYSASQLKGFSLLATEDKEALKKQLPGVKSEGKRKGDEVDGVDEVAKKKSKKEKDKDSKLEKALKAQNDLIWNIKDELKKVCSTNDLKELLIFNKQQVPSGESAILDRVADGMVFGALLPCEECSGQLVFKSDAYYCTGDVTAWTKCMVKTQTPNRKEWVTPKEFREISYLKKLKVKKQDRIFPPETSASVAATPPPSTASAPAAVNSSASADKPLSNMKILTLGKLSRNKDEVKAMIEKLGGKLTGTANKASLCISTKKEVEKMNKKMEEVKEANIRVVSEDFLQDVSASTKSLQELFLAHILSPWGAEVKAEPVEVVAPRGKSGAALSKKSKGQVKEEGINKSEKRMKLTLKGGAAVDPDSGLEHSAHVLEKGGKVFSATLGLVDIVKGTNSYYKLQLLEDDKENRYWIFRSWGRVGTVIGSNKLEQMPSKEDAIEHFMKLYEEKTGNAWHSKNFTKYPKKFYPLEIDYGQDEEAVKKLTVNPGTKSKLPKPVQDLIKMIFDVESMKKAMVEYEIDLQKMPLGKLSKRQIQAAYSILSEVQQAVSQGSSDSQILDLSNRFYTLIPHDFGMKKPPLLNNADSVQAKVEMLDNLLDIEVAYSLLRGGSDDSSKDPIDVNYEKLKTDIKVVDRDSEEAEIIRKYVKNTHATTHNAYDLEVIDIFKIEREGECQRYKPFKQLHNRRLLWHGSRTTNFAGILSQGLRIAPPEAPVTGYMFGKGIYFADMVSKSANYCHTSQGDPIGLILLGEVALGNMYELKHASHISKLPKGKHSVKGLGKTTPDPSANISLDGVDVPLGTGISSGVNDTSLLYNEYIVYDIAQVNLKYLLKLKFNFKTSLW
SPT15 full length assumed: SPT15 full length assumed (Saccharomyces cerevisiae, UniProt P13393)
Sequence of UniProt P13393 (whole entry, looked up): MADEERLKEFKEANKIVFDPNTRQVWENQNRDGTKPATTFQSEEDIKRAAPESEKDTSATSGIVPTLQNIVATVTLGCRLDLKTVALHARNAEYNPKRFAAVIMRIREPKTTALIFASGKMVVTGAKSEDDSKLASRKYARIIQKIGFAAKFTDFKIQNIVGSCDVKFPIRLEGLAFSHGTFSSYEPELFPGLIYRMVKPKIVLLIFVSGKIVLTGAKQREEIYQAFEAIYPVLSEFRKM
SUA7 full length assumed: SUA7 full length assumed (Saccharomyces cerevisiae, UniProt P29055)
Sequence of UniProt P29055 (whole entry, looked up): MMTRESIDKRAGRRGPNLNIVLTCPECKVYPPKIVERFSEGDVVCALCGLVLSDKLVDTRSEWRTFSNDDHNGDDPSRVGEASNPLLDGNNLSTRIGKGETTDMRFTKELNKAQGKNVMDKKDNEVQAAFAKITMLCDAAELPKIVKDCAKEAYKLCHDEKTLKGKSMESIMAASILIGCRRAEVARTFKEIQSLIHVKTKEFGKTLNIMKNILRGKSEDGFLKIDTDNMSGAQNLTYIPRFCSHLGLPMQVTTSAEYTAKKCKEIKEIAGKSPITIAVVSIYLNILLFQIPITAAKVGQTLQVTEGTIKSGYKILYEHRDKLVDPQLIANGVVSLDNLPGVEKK
Sequence of UniProt P0AFB8 (whole entry, looked up): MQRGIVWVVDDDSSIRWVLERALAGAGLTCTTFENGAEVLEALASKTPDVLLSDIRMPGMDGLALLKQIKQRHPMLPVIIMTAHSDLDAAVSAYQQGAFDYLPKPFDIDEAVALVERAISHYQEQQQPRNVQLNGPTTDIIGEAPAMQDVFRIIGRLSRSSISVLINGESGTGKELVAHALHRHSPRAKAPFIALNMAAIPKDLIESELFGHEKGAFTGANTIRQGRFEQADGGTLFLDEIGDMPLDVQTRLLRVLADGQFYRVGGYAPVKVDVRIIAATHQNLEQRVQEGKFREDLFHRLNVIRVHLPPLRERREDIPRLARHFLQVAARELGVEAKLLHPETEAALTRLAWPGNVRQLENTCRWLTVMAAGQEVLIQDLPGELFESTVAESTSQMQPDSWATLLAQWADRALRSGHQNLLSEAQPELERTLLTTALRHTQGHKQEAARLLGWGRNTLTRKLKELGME
Sequence of UniProt Q9BRS8 (whole entry, unmodified, looked up): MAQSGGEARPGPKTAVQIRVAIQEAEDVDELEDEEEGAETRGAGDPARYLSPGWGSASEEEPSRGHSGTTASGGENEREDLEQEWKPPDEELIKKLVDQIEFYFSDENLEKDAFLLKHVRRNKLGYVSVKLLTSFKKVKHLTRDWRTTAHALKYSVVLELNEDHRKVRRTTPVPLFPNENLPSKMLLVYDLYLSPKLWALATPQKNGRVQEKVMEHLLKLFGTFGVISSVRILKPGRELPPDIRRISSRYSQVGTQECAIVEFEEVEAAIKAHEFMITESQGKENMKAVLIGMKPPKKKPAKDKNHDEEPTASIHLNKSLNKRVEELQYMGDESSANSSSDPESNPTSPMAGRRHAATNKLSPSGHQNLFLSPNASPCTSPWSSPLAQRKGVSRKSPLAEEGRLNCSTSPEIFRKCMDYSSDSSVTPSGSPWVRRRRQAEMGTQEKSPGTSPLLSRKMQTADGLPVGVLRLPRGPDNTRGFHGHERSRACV
Sequence of UniProt P07676 (whole entry, unmodified, looked up): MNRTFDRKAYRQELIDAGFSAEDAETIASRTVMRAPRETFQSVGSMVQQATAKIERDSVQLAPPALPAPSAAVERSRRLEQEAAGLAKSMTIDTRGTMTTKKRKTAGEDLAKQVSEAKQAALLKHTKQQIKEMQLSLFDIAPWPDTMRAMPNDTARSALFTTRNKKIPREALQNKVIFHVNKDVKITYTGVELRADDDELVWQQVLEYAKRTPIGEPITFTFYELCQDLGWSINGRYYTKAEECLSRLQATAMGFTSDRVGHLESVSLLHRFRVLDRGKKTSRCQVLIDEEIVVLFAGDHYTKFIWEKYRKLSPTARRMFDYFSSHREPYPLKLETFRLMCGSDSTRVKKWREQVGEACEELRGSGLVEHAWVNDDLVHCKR
Sequence of UniProt P63159 (whole entry, looked up): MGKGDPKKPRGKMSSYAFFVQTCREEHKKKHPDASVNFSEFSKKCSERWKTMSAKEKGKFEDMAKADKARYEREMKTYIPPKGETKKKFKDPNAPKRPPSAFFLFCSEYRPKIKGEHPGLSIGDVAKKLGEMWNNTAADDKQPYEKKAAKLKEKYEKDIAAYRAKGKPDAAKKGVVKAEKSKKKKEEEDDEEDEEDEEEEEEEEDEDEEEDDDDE

Molecule | tested on | test | test system | setting | quantity | value
colistin | Pseudomonas aeruginosa | broth microdilution | clinical isolate RKI-No_253/15 | – | MIC | 1 µg/mL
AGCGUGCCGUGCAACAACAUUACAAUUUACAAUCCACCAUGG (ssRNA) | ECD 1-644 (Homo sapiens, UniProt O95905) | FP | RNA | – | Kd | 4500 ± 900 nM
CAATACACTGTTATCAGACACACGTGTGGAGCTACTCGTTCGGTTATCCGGCGGTATGAC (dsDNA) | PHO4 | MITOMI | double-stranded DNA, one strand shown | not purified | Kd | 166 ± 4 nM
GCAGUAGGGUGAGGGUGUUGGCAGGGAGCGCCCUCCCCCAUAGUGU (RNA; multiple G-quadruplex hairpins) | MECP2 | fluorescence polarization | folded RNA | Hill coefficient 0.91 | Kd | 1.51 ± 0.15 nM
UUUGAUUUU (ssRNA) | U2AF2 | sequencing of bound RNA | RNA | motif only | Kd | 4280 nM
CATTCGCTTGCTATAAGTAGACCCAATGGAACTCATCATAAATGAGACTTTTACCTTATGA (dsDNA) | nac full length assumed | BLI | double-stranded DNA, one strand shown | – | Kd | 5.21 nM
caspofungin | – | – | adult ICU patients, mITT, serum | dose not given, day 14 | alkaline phosphatase | 168 U/L
CAATACACTGTTATCACACACACGTGTCGAGCTACTCGTTCGGTTATCCGGCGGTATGAC (dsDNA) | PHO4 | MITOMI | double-stranded DNA, one strand shown | not purified | Kd | 152 ± 3 nM
CATTCGCAACCTATAAGTAAATCCAATGGAACTCATCATAAATGAGACTTTTACCTTATGA (dsDNA) | ulaR full length assumed | BLI | double-stranded DNA, one strand shown | – | Kd | 356 nM
AAAUGAGGCGCUGCAUGUGGCAGUCUGCCUUUCUUU (structured RNA) | LARP7 1-204 (Homo sapiens, UniProt Q4G0J3) | FRET | folded RNA | – | Kd | 33 ± 1 nM
CGCTAAAGTGGCAAAGTGGGAAAGTGGTAAAGTGTCAAAGTGTGAAAGTGTTAAACTCCGGCGGTATGAC (dsDNA) | CBF1 full length assumed | MITOMI | double-stranded DNA, one strand shown | not purified | Kd | 19000 ± 4000 nM
UAUUUUGUU (ssRNA) | U2AF2 | sequencing of bound RNA | RNA | motif only | Kd | 4310 nM
GGCAAGGAGUCUGCACUUCGGUGCUCAGCUUUGCC (RNA; hairpin, internal loop, tetraloop) | LARP6 73-183 G74C/R165A (Homo sapiens, UniProt Q9BRS8) | MST | folded RNA | – | Kd | 15.8 ± 1.32 nM
11-deoxycorticosterone | human CYP11B2 | stopped-flow kinetic modelling | – | 3-state induced fit model, with: equimolar adrenodoxin | Kd | 2160 nM
TTGACAAAATTTGAAAGTTGGAAAAATTTTCCAATAAATAGAGGTAGGAATAAAATGGCAA (dsDNA) | ulaR full length assumed | BLI | double-stranded DNA, one strand shown | – | Kd | 188 nM
CCATCGCTACC (dsDNA) | HMGB3 full length assumed (Homo sapiens, UniProt O15347) | fluorescence anisotropy | double-stranded DNA, one strand shown | – | Kd | 4.2 ± 0.5 nM
GCAUUUGAG (ssRNA) | U2AF2 | sequencing of bound RNA | RNA | motif only | Kd | 4850 nM
GGTAACTTAGCGTCTCGTTGTGAGTATTTCTGACAAGGAATGGAATGCGATGCGCATAACG (dsDNA) | ulaR full length assumed | BLI | double-stranded DNA, one strand shown | – | Kd | 48.8 nM
CGCAAAAACAACUAAAUCAAAACCAA (ssRNA; unstructured) | PARP1 216-1014 del1-215 | fluorescence polarization | RNA | Hill coefficient 0.81 | Kd | 220 ± 24 nM
CTCAGGAATTCCGATAAAGTAATGTGGAGCTCAGTTCAAGTCAATCGGTCC (dsDNA; 5'-amino-C6 primer) | SPT15 full length assumed | array | double-stranded DNA, one strand shown | TBP alone | Kd | 6.82 ± 1.08 nM
ATGACATGACACGTTACGTT (dsDNA) | HMGB1 A+B boxes (Rattus norvegicus, UniProt P63159) | fluorescence anisotropy | double-stranded DNA, one strand shown | with: Mg2+ 2 mM | Kd | 47 nM
CAATACACTGTTATCAGACACACGTGTTGAGCTACTCGTTCGGTTATCCGGCGGTATGAC (dsDNA) | PHO4 | MITOMI | double-stranded DNA, one strand shown | not purified | Kd | 138 ± 4 nM
UCAGACUUU (ssRNA) | U2AF2 | sequencing of bound RNA | RNA | motif only | Kd | 4720 nM
TGCATAAGATTTGGTCCAGTACTCGCAGGAAATGGTCAAGTCAATCGGTCC (dsDNA; 5'-amino-C6 primer) | SUA7 full length assumed | array | double-stranded DNA, one strand shown | TFIIB alone | Kd | 2.34 ± 0.47 nM

Molecule | tested on | test | test system | setting | quantity | value
CUUAAUGAU (ssRNA) | U2AF2 | sequencing of bound RNA | RNA | motif only | Kd | 1560 nM
CGCCATGTAGACATGTATACATGTCCACATGTCGACATGTCTACATGTGCACATGCTCCGGCGGTATGAC (dsDNA) | CBF1 full length assumed | MITOMI | double-stranded DNA, one strand shown | not purified | Kd | 130 ± 10 nM
GUUUCUCUU (ssRNA) | U2AF2 | sequencing of bound RNA | RNA | motif only | Kd | 12800 nM
CAATACACTGTTATCAGTCACACGTGTCGAGCTACTCGTTCGGTTATCCGGCGGTATGAC (dsDNA) | PHO4 | MITOMI | double-stranded DNA, one strand shown | not purified | Kd | 196 ± 5 nM
ATGCATTTCAATGCACCACGATAGTGCAACAAACCTGGCGTGCACCATGATGATCATTCCA (dsDNA) | glnG full length assumed (Escherichia coli, UniProt P0AFB8) | BLI | double-stranded DNA, one strand shown | – | Kd | 5.52 nM
CGCGACAACGTGAGAACGTGATAACGTGCCAACGTGCGAACGTGCTAACGTGGCACTCCGGCGGTATGAC (dsDNA) | CBF1 full length assumed | MITOMI | double-stranded DNA, one strand shown | not purified | Kd | 110 ± 10 nM
GGUGCCUCCCAGUGGUCUUUGUAGACUGCCUGAUGGAGUCACCC (RNA; hairpin with internal loops/bulges) | GATA1 200-311 (Homo sapiens, UniProt P15976) | fluorescence anisotropy | folded RNA | – | Kd | 510 ± 70 nM
RNA 1 CGGCAGGACGUACAUCCCUCCCGGCUCCCCUCCCGCUGGCCUGCCG / RNA 2 CGGCAGGCCAGCGGGAGGGGAGCCGGGAGGGAUGUACGUCCUGCCG (dsRNA) | PARP1 216-1014 del1-215 | fluorescence polarization | double-stranded RNA | Hill coefficient 0.59 | Kd | 51.8 ± 5.4 nM
CGCGCGACCACGCTACCACGGCACCACGGGACCACGGTACCACGTCACCACGTGACTCCGGCGGTATGAC (dsDNA) | CBF1 full length assumed | MITOMI | double-stranded DNA, one strand shown | not purified | Kd | 33 ± 5 nM
CATTCGCCGGCTATAAGTAAATCTTATGGAACTCATCATAAATGAGACTTTTACCTTATGA (dsDNA) | nac full length assumed | BLI | double-stranded DNA, one strand shown | – | Kd | 2.49 nM
GAUACAGAGAAG (ssRNA) | SART3 697-786 (Homo sapiens, UniProt Q15020) | ITC | RNA | – | Kd | 2600 ± 400 nM
CAATACACTGTTATCAGACACACGTGTCAAGCTACTCGTTCGGTTATCCGGCGGTATGAC (dsDNA) | PHO4 | MITOMI | double-stranded DNA, one strand shown | not purified | Kd | 117 ± 3 nM
TTTGCGTGGGCTGTGGTGCTTT (ssDNA) | traI 309-858 K331A (Escherichia coli, UniProt P14565) | fluorescence titration | single-stranded DNA | – | Kd | 18.7 ± 4.2 nM
GCGGUGUAUAGCCUAAUCUUUACCGC (structured RNA) | MECP2 | fluorescence polarization | folded RNA | untagged | Kd | 25.2 nM
CAATACACTGTTATCAGACTCACGTGTCGAGCTACTCGTTCGGTTATCCGGCGGTATGAC (dsDNA) | PHO4 | MITOMI | double-stranded DNA, one strand shown | not purified | Kd | 336 ± 8 nM
DNA 1 CTAATATACACGGATACAAAAGAAATACACATAATTCAATTCAATCGGTCC / DNA 2 GGACCGATTGACTTGAATTATGTGTATTTCTTTTGTATCCGTGTATATTAG (dsDNA; blunt; C:T mismatch; 5'-amino-C6 primer) | SUA7 full length assumed | array | double-stranded DNA | TFIIB alone | Kd | 2.69 ± 0.9 nM
CGCTATTTACGTCACTACGTCAGCACGTCAGGACGTCAGTACGTCATCACGTCATCTCCGGCGGTATGAC (dsDNA) | CBF1 full length assumed | MITOMI | double-stranded DNA, one strand shown | not purified | Kd | 460 ± 20 nM
DNA 1 GCCGGGCCGGCCGGCCGGCCCCCGGGGCCCGGCGCTCAATTCAATCGGTCC / DNA 2 GGACCGATTGACTTGAGCGCCGGGCCCCGGGGGCCGGCCGGCCGGCCCGGC (dsDNA; blunt; C:T mismatch; 5'-amino-C6 primer) | SPT15 full length assumed | array | double-stranded DNA | TBP alone | Kd | 3.51 ± 0.27 nM
CCTGCGGTATTGACACTTGAGGGGCGCGACTACTGACAGATGAGGGGCGCGATCCTTGACACTTGAGGGGCAGAGTGATGACAGATGAGGGGCGCACCTATTGACATTTGAGGGGCTGTCCACAGGCAG (dsDNA) | trfA 98-382 G254D/S267L/K303E (Escherichia coli, UniProt P07676) | SPR | double-stranded DNA, one strand shown | – | Kd | 1.45 nM
AGCGTCACAGACATGAAATTGGTAAGACCAATTGACTTCGGCAAGTGGCTTAAGACAGGAA (dsDNA) | ulaR full length assumed | BLI | double-stranded DNA, one strand shown | – | Kd | 3520 nM
FGA (Homo sapiens, UniProt P02671) | ARB2A (Homo sapiens, UniProt Q8WUF8) | cross-linking MS | – | with: DSSO | cross-linked residues | K71 to K235
CTCAGGAATTCCTATACAGTAATGTGGAGCTCAGTTCAAGTCAATCGGTCC (dsDNA; 5'-amino-C6 primer) | SPT15 full length assumed | array | double-stranded DNA, one strand shown | TBP alone | Kd | 1.6 ± 0.08 nM
GUAUAGUGU (ssRNA) | U2AF2 | sequencing of bound RNA | RNA | motif only | Kd | 3520 nM
CAATACACTGTTATCAGACACACGTGTCGTGCTACTCGTTCGGTTATCCGGCGGTATGAC (dsDNA) | PHO4 | MITOMI | double-stranded DNA, one strand shown | not purified | Kd | 135 ± 3 nM

A few entries again:
Molecule | tested on | test | test system | setting | quantity | value
GGTAACTTAGCGTCTCGTTGTGAGTATTTCTGACAAGGAATGGAATGCGATGCGCATAACG (dsDNA) | ulaR full length assumed | BLI | double-stranded DNA, one strand shown | – | Kd | 48.8 nM
CGCAAAAACAACUAAAUCAAAACCAA (ssRNA; unstructured) | PARP1 216-1014 del1-215 | fluorescence polarization | RNA | Hill coefficient 0.81 | Kd | 220 ± 24 nM
CTCAGGAATTCCGATAAAGTAATGTGGAGCTCAGTTCAAGTCAATCGGTCC (dsDNA; 5'-amino-C6 primer) | SPT15 full length assumed | array | double-stranded DNA, one strand shown | TBP alone | Kd | 6.82 ± 1.08 nM
ATGACATGACACGTTACGTT (dsDNA) | HMGB1 A+B boxes (Rattus norvegicus, UniProt P63159) | fluorescence anisotropy | double-stranded DNA, one strand shown | with: Mg2+ 2 mM | Kd | 47 nM
CAATACACTGTTATCAGACACACGTGTTGAGCTACTCGTTCGGTTATCCGGCGGTATGAC (dsDNA) | PHO4 | MITOMI | double-stranded DNA, one strand shown | not purified | Kd | 138 ± 4 nM
